{"data": "Published values collected from several papers", "note": "Each numbered part is a random draw from the data of one study; scales do not carry over between parts."}
{"data": "Sample 1", "target": "Sal-like protein 4, full length isoform A (SALL4, Homo sapiens, UniProt Q9UJQ4, residues 1-1053)", "method": "universal PBM", "form": "double-stranded DNA, one strand shown", "medium": "in vitro", "tested at": "600 nM", "notes": "8-mer, flanks averaged, mean of replicates", "reading": "higher = stronger binding", "chain of UniProt Q9UJQ4 (whole entry, looked up)": "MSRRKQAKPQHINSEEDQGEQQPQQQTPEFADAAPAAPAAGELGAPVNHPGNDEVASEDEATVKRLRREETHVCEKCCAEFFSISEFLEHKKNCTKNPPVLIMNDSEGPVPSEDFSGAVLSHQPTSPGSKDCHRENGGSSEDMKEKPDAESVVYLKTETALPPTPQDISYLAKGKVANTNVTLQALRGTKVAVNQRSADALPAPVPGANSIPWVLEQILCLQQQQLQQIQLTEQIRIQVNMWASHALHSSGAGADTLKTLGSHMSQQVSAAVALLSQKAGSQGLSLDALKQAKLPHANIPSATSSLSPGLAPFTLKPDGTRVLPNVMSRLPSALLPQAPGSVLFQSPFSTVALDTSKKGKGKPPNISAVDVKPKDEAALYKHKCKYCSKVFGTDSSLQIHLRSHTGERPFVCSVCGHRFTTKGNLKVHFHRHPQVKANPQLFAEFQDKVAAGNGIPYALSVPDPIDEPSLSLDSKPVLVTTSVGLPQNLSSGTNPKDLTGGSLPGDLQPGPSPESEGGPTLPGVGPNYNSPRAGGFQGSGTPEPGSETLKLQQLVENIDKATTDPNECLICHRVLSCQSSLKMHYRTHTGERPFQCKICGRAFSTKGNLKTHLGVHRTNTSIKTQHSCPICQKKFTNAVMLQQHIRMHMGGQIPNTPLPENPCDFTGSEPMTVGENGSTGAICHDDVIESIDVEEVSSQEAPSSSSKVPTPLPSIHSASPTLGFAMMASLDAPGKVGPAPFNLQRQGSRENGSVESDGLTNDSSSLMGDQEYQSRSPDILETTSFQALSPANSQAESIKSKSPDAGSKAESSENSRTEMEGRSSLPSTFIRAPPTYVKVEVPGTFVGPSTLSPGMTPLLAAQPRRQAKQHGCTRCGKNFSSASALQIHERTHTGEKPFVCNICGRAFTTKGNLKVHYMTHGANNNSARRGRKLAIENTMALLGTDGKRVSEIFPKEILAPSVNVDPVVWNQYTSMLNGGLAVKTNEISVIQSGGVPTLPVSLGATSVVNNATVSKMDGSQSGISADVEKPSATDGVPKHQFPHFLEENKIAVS"}
{"Sequence": "TCCGGAAA", "E-score": -0.0875}
{"Sequence": "CTTCCCGC", "E-score": -0.187}
{"Sequence": "GATTGCCC", "E-score": -0.158}
{"data": "Sample 2", "target": "Interferon regulatory factor 5, full length, phosphomimetic (IRF5, Homo sapiens, UniProt Q13568-2, residues 1-514, K96S/S451D/S453D/S456D/S462D)", "method": "protein-binding microarray", "form": "double-stranded DNA, one strand shown", "medium": "in vitro", "tested at": "250 nM", "notes": "60-bp whole probe", "added": "salmon DNA 0.4 mg/ml", "relative to": "random background probes", "reading": "higher = stronger binding"}
{"Sequence": "GCCTAGCACGACGCTCTCCTTCTCCTGACGTGCTAGGTCTTGATTCGCTTGACGCTGCTG", "log fluorescence [z-score]": -0.108}
{"Sequence": "GCCTAGCACAACATACTCGTTTACATTTTGTGCTAGGTCTTGATTCGCTTGACGCTGCTG", "log fluorescence [z-score]": 0.908}
{"Sequence": "GCCTAGCACGACGAACTGAGACTGGATACGTGCTAGGTCTTGATTCGCTTGACGCTGCTG", "log fluorescence [z-score]": -0.206}
{"Sequence": "GCCTAGCACGACGGTATCGACAATGGGGACGTGCTAGTCTTGATTCGCTTGACGCTGCTG", "log fluorescence [z-score]": 1.84}
{"data": "Further values, each from its own experiment"}
{"Substance": "CCTGCGGA", "target": "Histone acetyltransferase KAT6A, winged helix 2, GST fusion (KAT6A, Homo sapiens, UniProt Q92794, residues 85-181)", "test": "protein binding microarray", "system": "double-stranded DNA, one strand shown, in vitro", "setting": "not given, 8-mer, flanks averaged, mean of 2 arrays, mostly near background", "how to read": "relative to: not given, higher = stronger binding", "measurement": "E-score", "value": 0.167}
{"Substance": "PhoQ, residues 284 288 289 292 302 303 NSMLDC", "target": "PhoP, residues 12 14 15 18 19 IQSYL (Escherichia coli, UniProt P23836)", "test": "Sort-seq, refers to: YFP reporter", "system": "E. coli", "setting": "PhoQ-PhoP variant library, added: 10 µM Mg2+", "how to read": "relative to: high Mg2+ state, higher = stronger signaling", "measurement": "fold induction", "value": 18.9}
{"Substance": "CGGATCCA", "target": "Histone acetyltransferase KAT6A, winged helix 1, GST fusion (KAT6A, Homo sapiens, UniProt Q92794, residues 1-85)", "test": "protein binding microarray", "system": "double-stranded DNA, one strand shown, in vitro", "setting": "not given, 8-mer, flanks averaged, mean of 2 arrays, mostly near background", "how to read": "relative to: not given, higher = stronger binding", "measurement": "E-score", "value": 0.073}
{"note": "Some of these lines once more (sample 1):"}
{"Sequence": "CTTCCCGC", "E-score": -0.187}
